# Measured values of several laboratories.
# Each numbered part is a random draw from the data of one study; scales do not carry over between parts. Positions count from the first letter of the parent shown.

# Series 1
# Target: Interferon regulatory factor 3, full length, phosphomimetic (IRF3, Homo sapiens, UniProt Q14653, residues 1-427, S386D/S396D/S398D/S402D/T404D/S405D)
# UniProt Q14653, sequence (whole entry, unmodified, looked up): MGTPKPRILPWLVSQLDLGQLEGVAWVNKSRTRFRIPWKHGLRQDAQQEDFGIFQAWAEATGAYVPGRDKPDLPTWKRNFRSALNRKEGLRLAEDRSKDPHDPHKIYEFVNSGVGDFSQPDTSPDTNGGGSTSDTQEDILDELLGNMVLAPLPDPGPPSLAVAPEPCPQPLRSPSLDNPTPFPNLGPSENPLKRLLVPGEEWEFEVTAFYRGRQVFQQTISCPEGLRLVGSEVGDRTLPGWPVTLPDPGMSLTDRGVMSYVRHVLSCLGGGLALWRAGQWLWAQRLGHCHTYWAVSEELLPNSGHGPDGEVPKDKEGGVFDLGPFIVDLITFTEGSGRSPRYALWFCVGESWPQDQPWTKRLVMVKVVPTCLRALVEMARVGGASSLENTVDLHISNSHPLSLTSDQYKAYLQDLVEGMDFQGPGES
# Technique: protein-binding microarray
# Molecule type: double-stranded DNA, one strand shown
# Matrix: in vitro
# Concentration: 2540 nM top
# Notes: 60-bp whole probe
# With: salmon DNA 0.4 mg/ml
# Relative to: random background probes
# Direction: higher = stronger binding
# Shared flanks, not repeated: GCCTAGCAC … GTCTTGATTCGCTTGACGCTGCTG
Oligonucleotide,fitted relative affinity
GACGGTATCGACTGTCGGGACGTGCTA,0.17 z-score
TTAGATTTCATTTTCGATTAGTGCTAG,4.34 z-score
TCATATATGACAATGATACTGTGCTAG,0.492 z-score
TTTCACACTGTCCAGCAGGTGTGCTAG,3.4 z-score
GACGGTTTCGGGACGGGGGACGTGCTA,3.89 z-score
TTAGGTTTCGGTTTCGGTCAGTGCTAG,11.8 z-score
GATGGTATCGACTATCGGGACGTGCTA,0.322 z-score
GAACCTTGGCCTCTAGGTTTGTGCTAG,-0.298 z-score
TTAGCACTGGGTCTCGGTTAGTGCTAG,-0.737 z-score
TTTGGTTTCGGACTGGGTTAGTGCTAG,4.74 z-score
TCACCATTATATTTTAAACTGTGCTAG,0.972 z-score
TTCCATTTCTGTTTTTGCTTGTGCTAG,4.84 z-score
GACGGACTGGGTTTCGGCACGTGCTAG,0.437 z-score
TTAGGAGTGGGACTGGGTTAGTGCTAG,-0.855 z-score
TCAGGACTGCTTCTCCTTTAGTGCTAG,0.142 z-score
TCACCTTGATGTCTGGGACTGTGCTAG,-0.0184 z-score

# Series 2
# Target: CCND2, cyclin fold, Cln2 fusion (human)
# Technique: yeast growth competition, sequencing
# Matrix: yeast
# Notes: weak parent motif
# Relative to: not given
# Direction: higher = stronger binding
# Starting sequence: NPAT docking peptide (human); PCHRRVLCFDSTT; partner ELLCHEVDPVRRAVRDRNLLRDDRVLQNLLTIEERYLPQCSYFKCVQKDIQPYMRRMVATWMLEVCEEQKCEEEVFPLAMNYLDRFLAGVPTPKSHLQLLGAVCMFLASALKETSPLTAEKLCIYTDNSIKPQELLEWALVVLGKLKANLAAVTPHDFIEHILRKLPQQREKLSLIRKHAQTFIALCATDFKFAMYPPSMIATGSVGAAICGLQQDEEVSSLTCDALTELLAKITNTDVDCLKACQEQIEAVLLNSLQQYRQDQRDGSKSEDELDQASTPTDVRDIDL
Variant,normalised enrichment score
S11A,-0.262
R4A,0.14
R5K,0.242
R5A L7A,-0.0199
R5A,0.0426
T12A,0.163
L7A,-0.203
V6A,-0.0766
R5K F9L,0.325
C8A,0.0353

# Series 3
# Target: RNA binding protein fox-1 homolog 2, RRM domain, GST-SBP tag (RBFOX2, Homo sapiens, UniProt O43251-10, residues 100-194)
# Technique: RNA Bind-n-Seq
# Molecule type: RNA
# Matrix: in vitro
# Concentration: 365 nM
# Notes: natural RNA segment, single round, ends assumed
# Relative to: no-protein control
# Direction: higher = stronger binding
# Shared flanks, not repeated: GGGAGUUCUACAGUCCGACGAUC … UGGAAUUCUCGGGUGCCAA
# Residues (chain): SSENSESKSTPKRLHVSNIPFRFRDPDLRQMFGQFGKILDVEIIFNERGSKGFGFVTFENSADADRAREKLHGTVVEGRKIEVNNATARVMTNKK
Oligonucleotide,RBNS enrichment (R)
AUCCCUCACAUCCUGUCACGGCAGGGGCUGUGCAGGGUACUGCCCUCCCUCUGCCCAGCAGCCCCAUCUCUCCAUCACCCUGAGCCCCUCAGGUCCCAACUGAAUGUCUG,0.533
UAAAUAAGAAACAACUCUUUGAGAAACAACAAUUUCUACUUUGAAGUCAUACCAAUGAAAAAAUGUAUAUGCACUUAUAAUUUUCCUAAUAAAGUUCUGUACUCAAAUGU,0.948
AACCUGGGUCCGGCCUUCCUCAGCCCCUGGCCCCUCCAAGGUACCUAUAAGGGACAAGAGAAGGCCUGCCCAGCAUAGCACAAACAAGGAAAUAAAUAGGUGUUGGCAGG,0.307
AGCCCCGAAUUUGAAUCUCAAAGUCCAGGGUAUGAAUCUCAGAGCCCCGGGUAUGAACCGCAGAACUCUGGAGAUGGCGUUCAGAAUUCUGAGUUCAAAACCCAUAGCCC,0.645
AGAUCAGCUCUAAGGUGCUGACAGCGACCCUGCUCAGAGCACCAGGUUUCAGGGCACUGAAGCCUUCCCGAAGUGCGUACACAUUCUGGGGAGUGUGCUCCAGCUGCCCC,0.173
GUGAACAUGCCGUAACUCUGUGACUGCAUUGUAAGUGCAGUGGGGGUAAGCAGUCCUGUGAGUGGCGCAUGAACGCUGGAGCUUAUUCCGCCGCCUGCCCCAGUGUGGGG,1.51
CUUGAUCUGAAAUCCACAAUUAGACCACAAUGCACCUUUGGUUGUAUCCAUAAAGGAUGCUAGCCUGCCUUGUACUAAUGUUUUAUAUAUUAAAAAAAAAAAAUCUAUCA,0.567
GAAGGGAGUCGGGAGGGAAGGAAGGGGUAGGCUCGCCCUGCUUUAUCCAUGCUAGAACCAUGGUAUCCCAUGGGAAGCAGACAGCAGGCAAGGAGAGGCGUGGACACCGG,0.457
CUUGCUGUGAAGAACAGAGCCCACCCCAUAGCCUAAAUCUGUCCCUUCUAUUCCUUGUCCCCUCCCUGAGUUAGCUGGGCCUUGGUUCUGGGUCCCUGAGCAGGAGGAGG,0.575
CCCUCCUUCCCCCCACCCCCGUGUGAAGUGUGUUAUCACCAGCAGACACUGCCGGACUCCUGCCCACAGGGGCGUGGCCUGAAGGGCGAGUGUGAACAUGGCACUGCUGU,0.638
UCUCUCUCUCUAAAUUUGGAUAUAUUUUCUUCCCAAAUUGAAUAUUUCCUUUGUUUAACUCCCCCCCCCCCCAAUAGCACCCAUUUGCCUCUCAUUCUCCCAAGGGUUGC,0.906
CCAUAGCAGGUCUGGUUCCUGCUCCCCGCCUAGGACAGGAGCUGUCUGGAGCUCCACCUUUGCAAAGAAAGGAAAAACACAAAUUGCCCCCAGAUUGGCCCAGUGGCAUG,1.44

# Series 4
# Target: Sal-like protein 4, full length isoform A (SALL4, Homo sapiens, UniProt Q9UJQ4, residues 1-1053)
# UniProt Q9UJQ4, sequence (whole entry, looked up): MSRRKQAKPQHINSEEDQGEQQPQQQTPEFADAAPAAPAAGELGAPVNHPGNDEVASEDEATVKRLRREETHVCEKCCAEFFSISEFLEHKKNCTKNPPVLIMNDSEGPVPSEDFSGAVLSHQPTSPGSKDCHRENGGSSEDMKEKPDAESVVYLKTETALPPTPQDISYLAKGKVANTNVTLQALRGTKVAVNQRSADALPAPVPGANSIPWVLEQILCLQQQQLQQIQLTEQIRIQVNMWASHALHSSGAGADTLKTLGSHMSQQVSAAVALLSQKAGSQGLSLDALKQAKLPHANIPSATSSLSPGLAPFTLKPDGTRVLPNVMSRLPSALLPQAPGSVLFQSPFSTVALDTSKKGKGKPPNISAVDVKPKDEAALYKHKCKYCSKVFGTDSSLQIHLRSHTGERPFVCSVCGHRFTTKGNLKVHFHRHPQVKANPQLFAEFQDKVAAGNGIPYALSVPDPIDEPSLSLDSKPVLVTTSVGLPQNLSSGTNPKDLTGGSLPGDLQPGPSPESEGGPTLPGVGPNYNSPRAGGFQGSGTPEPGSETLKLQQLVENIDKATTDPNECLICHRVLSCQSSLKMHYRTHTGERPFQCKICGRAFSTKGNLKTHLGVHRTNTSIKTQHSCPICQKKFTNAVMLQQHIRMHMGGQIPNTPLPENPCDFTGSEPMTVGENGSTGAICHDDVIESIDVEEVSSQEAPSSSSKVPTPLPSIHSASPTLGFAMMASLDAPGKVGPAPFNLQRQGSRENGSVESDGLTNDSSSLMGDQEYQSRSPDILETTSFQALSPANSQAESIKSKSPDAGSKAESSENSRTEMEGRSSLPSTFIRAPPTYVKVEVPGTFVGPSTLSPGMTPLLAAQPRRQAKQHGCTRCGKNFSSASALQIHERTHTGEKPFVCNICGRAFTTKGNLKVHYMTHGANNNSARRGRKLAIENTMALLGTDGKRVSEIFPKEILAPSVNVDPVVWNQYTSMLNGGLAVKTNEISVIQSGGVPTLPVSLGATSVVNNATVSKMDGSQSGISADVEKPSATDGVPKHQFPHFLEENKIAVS
# Technique: universal PBM
# Molecule type: double-stranded DNA, one strand shown
# Matrix: in vitro
# Concentration: 600 nM
# Notes: 8-mer, flanks averaged, mean of replicates
# Direction: higher = stronger binding
Oligonucleotide,E-score
CTGTGTTC,-0.0433
GTCCTTGA,0.00771
CATTTGAC,0.132
CTGAGAGA,-0.103
AGCGTCGG,-0.177
GTAAGAGA,0.0923
AAACAGCC,-0.182
AGCGACAG,-0.0967
ACCGGGCT,-0.231
ATCAAAAA,0.321
GCTAAACA,0.112
CTTTTAAA,0.215
AAGCCTAA,0.0317
TCCGCCAA,-0.174
ATAACCTA,0.286
GGGCTTAA,-0.0912
CAACACGG,-0.163
CAGAGCTA,-0.182
ACGGAGAC,-0.0569
TCGCCACA,-0.126
GGTCACAC,-0.243
GGACTGCA,-0.115
GGATTACA,0.104

# Series 5
# Target: Histone acetyltransferase KAT6A, winged helix 2, GST fusion (KAT6A, Homo sapiens, UniProt Q92794, residues 85-181)
# Technique: protein binding microarray
# Molecule type: double-stranded DNA, one strand shown
# Matrix: in vitro
# Concentration: not given
# Notes: 8-mer, flanks averaged, mean of 2 arrays, mostly near background
# Relative to: not given
# Direction: higher = stronger binding
# Residues (chain): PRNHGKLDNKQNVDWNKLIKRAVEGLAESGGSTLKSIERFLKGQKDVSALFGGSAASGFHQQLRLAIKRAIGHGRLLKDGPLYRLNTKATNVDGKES
Oligonucleotide,E-score
GACAACTC,0.0378
ACCTCGAC,0.114
ATGATGAA,0.034
AGTTGAGG,0.0242
AAGCGACA,0.136
TAAGAATA,-0.217
ACTGCCCG,0.0794
GGTTTTTA,0.0238
ATCATCGA,0.0403
ACAACCCT,0.117
ATCGGTGA,0.0488
GCCAGTGA,-0.0385
GGCGATCA,0.0422
AGTCCATC,-0.0914
GGACTACA,-0.1
AAGCGAAA,-0.016
CAGTCGTA,-0.0317
ATGTCCAA,0.0413
CCACAAAG,0.197
ACTCAACA,-0.0195
GAGAAACA,0.138
ATAAGTGG,-0.106
CAAATTTC,0.105
GAGGAGCC,0.00765
TCTACGCA,0.0482

# Repeated from above (series 4):
Oligonucleotide,E-score
GCTAAACA,0.112
GTAAGAGA,0.0923
GGACTGCA,-0.115
GTCCTTGA,0.00771
CAGAGCTA,-0.182
ACCGGGCT,-0.231
AGCGACAG,-0.0967
CATTTGAC,0.132
CTGAGAGA,-0.103
ACGGAGAC,-0.0569
CTTTTAAA,0.215
ATAACCTA,0.286
CAACACGG,-0.163
